Published values pooled from the literature.
Protocols differ between the studies behind these lines. Numbers after ± are the reported error.

Compound	target or system	assay	test system	conditions	endpoint	value
COc1ccc(N2C(=O)N(c3c(C)cccc3Cl)Cc3cnc(Nc4ccc(C5CCN(C)CC5)cc4OC)nc32)nc1	PKC-beta2, human	kinase activity		0.5 µM	inhibition	-0.85%
CC1(C)S[C@@H]2[C@H](NC(=O)Cc3ccccc3)C(=O)N2[C@H]1C(=O)O	PBP1b Streptococcus pneumoniae	Bocillin-FL competition	live Streptococcus pneumoniae cells	30 min, with: Bocillin-FL 600 nM	kinact/KI	41000 ± 11000 M⁻¹ s⁻¹
c1ccc(CCCN2C[C@H]3CC[C@@H](C2)N3c2ccccc2)cc1	mu opioid receptor (human)	β-arrestin-2 recruitment			EC50	> 50 µM
COc1cccc(OC)c1C(=O)N[C@@H]1C(=O)N2[C@@H]1SC(C)(C)[C@@H]2C(=O)O	PBP1b Streptococcus pneumoniae	Bocillin-FL competition	live Streptococcus pneumoniae cells	30 min, with: Bocillin-FL 600 nM	kinact/KI	650 ± 430 M⁻¹ s⁻¹
C/C(=C/C=C/[C@@H](C)C(=O)O)[C@H]1CN[C@H](C(=O)O)[C@H]1CC(=O)O	GluK2/GluK5 kainate receptor rat	peak current, agonist, whole-cell patch clamp		pH 7.4, holding potential -70 mV, extrapolated	EC50	125 ± 29.5 µM
CC1=C(C(=O)O)N2C(=O)[C@@H](NC(=O)[C@H](N)c3ccccc3)[C@H]2SC1	PBP3 Streptococcus pneumoniae	Bocillin-FL competition	live Streptococcus pneumoniae cells	30 min, with: Bocillin-FL 600 nM	kinact/KI	3700 ± 980 M⁻¹ s⁻¹
C[C@H](C(=O)N[C@H]1COc2ccccc2[C@@H]1S(C)(=O)=O)c1ccc(F)cc1	NMDA receptor, rat, Glycine site	binding		10 µM, Eurofins selectivity panel	inhibition	5%
CC1(C)S[C@@H]2[C@H](NC(=O)[C@H](N)c3ccccc3)C(=O)N2[C@H]1C(=O)O	PBP1b Streptococcus pneumoniae	Bocillin-FL competition	live Streptococcus pneumoniae cells	30 min, with: Bocillin-FL 600 nM	kinact/KI	2000 ± 310 M⁻¹ s⁻¹
Cc1ccc(OP(=O)(Oc2ccc(C)cc2)Oc2ccc(C)cc2)cc1	mouse carboxylesterase		mouse, liver	dose not given, with: MUA substrate	carboxylesterase activity	decreased
N[C@@H]1C[C@H]1c1ccccc1 (racemic)	H+/organic cation antiporter	cell uptake	hCMEC/D3		Vmax	493 pmol/min/mg protein
O=C(Nc1cccnn1)N1CCN([C@@H]2CCOc3cc(C(F)(F)F)ccc32)CC1	sodium channel site 2	binding		20 µM	inhibition	76%
O=[N+]([O-])O	sulfate/chloride exchanger, human		neutrophils	external binding site	Km	18.4 mM
CO/N=C(\C(=O)N[C@@H]1C(=O)N2C(C(=O)O)=C(COC(C)=O)CS[C@H]12)c1csc(N)n1	PBP3 Streptococcus pneumoniae	Bocillin-FL competition	live Streptococcus pneumoniae cells	30 min, with: Bocillin-FL 600 nM	kinact/KI	1.4e+06 ± 460000 M⁻¹ s⁻¹
c1ccc(C(NCCNC(c2ccccc2)c2ccccc2)c2ccccc2)cc1	CXCR1/CXCR2 (human)	IL-8 binding		10 µM	inhibition	1%
CCN1CCN(Cc2ccc(Nc3nc4ccc(Oc5ccnc(NC(=O)C6CCN(C)CC6)c5)cc4n3C)cc2C(F)(F)F)CC1	β-hematin formation	detergent-based			IC50	13 µM
C[C@@H](Cc1ccsc1)NC(=O)NC[C@H](Cc1ccc(O)cc1)N(C)C	mu opioid receptor (human)	β-arrestin-2 recruitment			Emax	0%
CC(=O)Nc1ccc(C=Cc2ccc(N=C=S)cc2S(=O)(=O)O)c(S(=O)(=O)O)c1	sulfate/chloride exchanger, human	sulfate influx, inhibitor	neutrophils	with: 2 µM nigericin, 85 mM K+	Ki	56 µM
COc1cc(Nc2ncc(F)c(Nc3ccc4c(n3)NC(=O)C(C)(C)O4)n2)cc(OC)c1OC	TNF (non-selective)				IC50	> 10 µM
CNCCCN1c2ccccc2CCc2ccccc21	Plasmodium falciparum		GB4		IC50	10 µM
CN1C[C@H]2CC[C@@H](C1)N2c1cccc(O)c1	mu opioid receptor (human)	β-arrestin-2 recruitment			EC50	> 50 µM
O=[Se](=O)(O)O	sulfate/chloride exchanger, human	sulfate influx, inhibitor	neutrophils	external site, with: 2 µM nigericin, 85 mM K+	Ki	70900 µM
Oc1cccc(N2[C@@H]3CC[C@H]2CN(CCCc2ccccc2)C3)c1	mu opioid receptor (human)	β-arrestin-2 recruitment			EC50	> 50 µM
CC1(C)S[C@@H]2[C@H](/N=C/N3CCCCCC3)C(=O)N2[C@H]1C(=O)O	PBP3 Streptococcus pneumoniae	Bocillin-FL competition	live Streptococcus pneumoniae cells	30 min, with: Bocillin-FL 600 nM	kinact/KI	620 ± 150 M⁻¹ s⁻¹
Oc1cccc(CN2[C@@H]3CC[C@H]2CN(CCCc2ccccc2)C3)c1	mu opioid receptor (human)	β-arrestin-2 recruitment			Emax	0%
CO/N=C(\C(=O)N[C@@H]1C(=O)N2C(C(=O)O)=C(CSc3nc(=O)c(=O)[nH]n3C)CS[C@H]12)c1csc(N)n1	PBP1b Streptococcus pneumoniae	Bocillin-FL competition	live Streptococcus pneumoniae cells	30 min, with: Bocillin-FL 600 nM	kinact/KI	9200 ± 3200 M⁻¹ s⁻¹
CNCCC=C1c2ccccc2CCc2ccccc21	Plasmodium falciparum		Dd2		IC50	3.98 µM
Cc1onc(-c2c(Cl)cccc2Cl)c1C(=O)N[C@@H]1C(=O)N2[C@@H]1SC(C)(C)[C@@H]2C(=O)O	PBP3 Streptococcus pneumoniae	Bocillin-FL competition	live Streptococcus pneumoniae cells	30 min, with: Bocillin-FL 600 nM	kinact/KI	32000 ± 5100 M⁻¹ s⁻¹
Oc1cccc(N2[C@@H]3CC[C@H]2CN(Cc2ccccc2)C3)c1	mu opioid receptor (human)	β-arrestin-2 recruitment			Emax	0%
